Measurements pooled from the literature.
Each line is one published result; not all experiments were run side by side. Values joined by “and” are separate records of one study, mostly repeats; a detail may differ.
Target: Beta-1 adrenergic receptor (ADRB1, Homo sapiens, UniProt P08588)
Sequence of UniProt P08588 (whole entry, looked up): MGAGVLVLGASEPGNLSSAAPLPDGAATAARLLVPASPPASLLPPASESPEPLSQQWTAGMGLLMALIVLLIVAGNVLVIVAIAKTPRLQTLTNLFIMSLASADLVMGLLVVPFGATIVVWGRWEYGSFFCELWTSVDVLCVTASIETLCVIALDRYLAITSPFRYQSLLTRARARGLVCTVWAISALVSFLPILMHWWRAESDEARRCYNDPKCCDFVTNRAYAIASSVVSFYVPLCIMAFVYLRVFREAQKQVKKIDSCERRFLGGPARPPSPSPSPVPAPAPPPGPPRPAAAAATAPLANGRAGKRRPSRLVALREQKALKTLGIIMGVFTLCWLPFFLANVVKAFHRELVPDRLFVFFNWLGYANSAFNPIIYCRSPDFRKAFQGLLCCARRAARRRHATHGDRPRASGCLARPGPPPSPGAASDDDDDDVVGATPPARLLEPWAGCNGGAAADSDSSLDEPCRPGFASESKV

SMILES	test	system	setting	scale	measurement	result
CN(C(=O)n1cnc(-c2ccc[n+]([O-])c2)c1)C1CCCCC1	–	–	10 µM	–	inhibition	10.7%
CCN1/C(=C/C(C)=O)Sc2ccc(F)cc21	–	–	10 µM	–	inhibition	2.39%
CC(C)NCC(O)COc1ccc(CC(N)=O)cc1 (stereo not drawn)	binding, agonist, radioligand binding	–	–	–	Hill coefficient	0.8
OCCCN1CC[C@@H]2C[C@H]1c1cc(-c3ccc(C(F)(F)F)cc3)ccc12	radioligand binding, PDSP competition binding	–	10 µM	–	inhibition	< 50%
CN1CCC(CNc2ccc3ncc(-c4cccc(OC(F)(F)F)c4)n3n2)CC1	cAMP, antagonist, cell-based GPCR	–	10 µM	relative to: control	response	> 50%
N[C@@H](Cc1ccccc1)C(=O)O	–	HEK293 expressing β1AR	100 µM	–	cAMP level	22.7 pmol/mg protein and 22.2 pmol/mg protein and 23.9 pmol/mg protein and 18.2 pmol/mg protein
CC(C)NCC(O)COc1ccc(CC(N)=O)cc1 (stereo not drawn)	radioligand binding, agonist	–	reference compound	–	Hill coefficient	0.9
O=C(NO)c1ccc(CN2CCCCc3ccccc32)c(F)c1	radioligand binding, radioligand displacement	–	10 µM, mean of replicates	–	inhibition	32.7%
COc1cc(Cl)c(C(=O)N[C@@H](CN[C@H]2CC[C@@H](N)CC2)Cc2ccc(C#N)cc2)cc1-c1ccc(CN[C@H](C)c2ccc(C)cc2)o1	agonist response, antagonist	1	10 µM	–	inhibition	-7%

A few entries again:
SMILES	test	system	setting	scale	measurement	result
CCN1/C(=C/C(C)=O)Sc2ccc(F)cc21	–	–	10 µM	–	inhibition	2.39%
